# Published values collected from several papers.
# Protocols differ between the studies behind these lines. Several values in a cell are separate wells, animals, samples, runs or records. ± gives the spread as reported.
# PFF0160c E182D: Dihydroorotate dehydrogenase (quinone), mitochondrial (PFF0160c, Plasmodium falciparum, UniProt Q08210, E182D)
# ACHE: Acetylcholinesterase (ACHE, Homo sapiens, UniProt P22303)
# Aryl hydrocarbon receptor: Aryl hydrocarbon receptor (Danio rerio, UniProt Q9YGV3)
Compound,target,assay,system,setting,scale,quantity,result
C[C@@H]1CN(c2ccc(O)c(NS(=O)(=O)c3ccc(-c4ccco4)cc3)c2)C[C@H](C)N1.Cl,PFF0160c E182D,"enzyme activity, DCIP colorimetric",,,baseline: E182D mutant over wild type,IC50 ratio,0.7
COc1ccc(N2C(=O)N(c3c(C)cccc3Cl)Cc3cnc(Nc4ccc(C5CCN(C)CC5)cc4OC)nc32)nc1,"TAOK2 (Homo sapiens, UniProt Q9UL54)",kinase activity,,0.5 µM,,inhibition,19%
COc1cc2c3cc1Oc1cc(ccc1O)C[C@@H]1c4c(cc(OC)c(O)c4Oc4ccc(cc4)C[C@@H]3N(C)CC2)CC[N+]1(C)C,"Chrnd/Chrna1/Chrne (Mus musculus, UniProt P02716+P04756+P20782)","end-plate current, two-electrode voltage clamp",mouse hemidiaphragm,0.1 µM,,receptor block,≥ 65%
NCCc1c[nH]c2ccc(O)cc12,NMT from Rhinella marina,,,"10 min, 30 °C",,Km,79 ± 14.4 µM
CC(=O)NC[C@H]1[C@H](O)[C@H](O)[C@@H]2[C@H](O)C[C@@H](CO)N21,Spodoptera litura β-N-acetylglucosaminidase,,crude enzyme,"0.000784 µM, run 2, added: p-nitrophenyl GlcNAc",,inhibition,6.39%
C=C1[C@@H]2CC[C@@]3(C)[C@H](c4ccoc4)OC(=O)C[C@]13O[C@H]1CC(=O)C(C)(C)[C@H](CC(=O)OC)[C@]12C,ACHE,,biochemical,concentration not given,,activity class,inactive
COc1cc(Nc2ncc(F)c(Nc3ccc4c(n3)NC(=O)C(C)(C)O4)n2)cc(OC)c1OC,"RPS6KA5 (Homo sapiens, UniProt O75582)","kinase binding, KINOMEscan",,"10 µM, kinase domain 1 N-terminal",,inhibition,0%
CC(COc1ccccc1)NC(C)C(O)c1ccc(O)cc1 (centres unmarked),ACHE,,biochemical,concentration not given,,activity class,inactive
O=C(Nc1cnccc1Cl)N1CCN(Cc2ccc3c(c2)OC(F)(F)O3)CC1,"OPRD1 (Homo sapiens, UniProt P41143)","radioligand binding, inhibitor",,"50 µM, human, added: [3H]naltrindole",,inhibition,6%
CN1CCN(c2cc(-c3ccncc3)c(-c3ccc4ccccc4c3)nn2)CC1,"CRHR2 (Homo sapiens, UniProt Q13324)","agonist, FLIPR",,12.5 µM,,activation,-0.7%
Oc1ccc2ccc3cccc4ccc1c2c34,Aryl hydrocarbon receptor,"reporter gene, agonist, luciferase reporter",ZF-4,4.572 µM,baseline: vehicle control,fold change,1.04
COc1ncccc1-c1cnn2ccc(N3CCN(C(=O)OC(C)C)CC3)nc12,"Ribosomal protein S6 kinase alpha-5, N-terminal kinase domain (RPS6KA5, Homo sapiens, UniProt O75582)",KINOMEscan binding,,1 µM,baseline: untreated control,remaining binding,100%
O=C(O)Cc1c[nH]cn1,"SLC6A6 (Homo sapiens, UniProt P31641, Y138A)","binding, microscale thermophoresis",,"30.5 nM, fitted curve",higher = more binding,fraction bound,0.000177
Nc1ccn([C@H]2C[C@H](O)[C@@H](COP(=O)(O)OP(=O)(O)OP(=O)(O)O)O2)c(=O)n1,"DNA polymerase I, Klenow fragment (polA, Escherichia coli, UniProt P00582, C907S/D424A/L744C/Y766A)","substrate, single-turnover chemical quench",,added: dNTP,,kpol,25 s⁻¹
COc1cc(N)c(Cl)cc1C(=O)NC1CN2CCC1CC2 (centres unmarked),"MRGPRX1 (Homo sapiens, UniProt Q96LB2)","β-arrestin recruitment, TANGO luminescence",,concentration not given,baseline: basal luminescence,log2 fold change,0.439
O=C(O)C(F)(F)C(F)(F)C(F)(F)C(F)(F)C(F)(F)C(F)(F)C(F)(F)F,"SLCO2B1 (Homo sapiens, UniProt O94956)",substrate,CHO stably expressing,10 µM,,linear uptake duration,1 min
CCc1ccccc1N=C1c2c(cccc2[N+](=O)[O-])C(=O)C1C(C)=O (centres unmarked),PFF0160c E182D,"enzyme activity, DCIP colorimetric",,,baseline: E182D mutant over wild type,IC50 ratio,3.2
O=C(c1ccc(Cl)cc1)N1CCN2C(=O)N(OC(=O)N3CCOc4ccccc43)C(=O)C2C1 (centres unmarked),"SLC1A5 (Homo sapiens, UniProt Q15758)",MS-based ABPP,SW-620 conditioned medium,"10 µM, 1 h, 37 °C","baseline: compound over DMSO, lower = more inhibition",peptide ratio,1.5 and 1.14 and 1.13
C[C@H]1CN(c2n[nH]c3nc(N[C@H]4CC[C@H](NS(=O)(=O)CCC(F)(F)F)CC4)ncc23)CCO1,"IRAK1 (Homo sapiens, UniProt P51617)","inhibitor, Kinobeads competition profiling",,0.16 µM,baseline: vehicle,relative abundance,1.07
C=C(CN(C(=O)c1c(C(F)F)nn(C)c1F)C1CC1)c1ccc(Cl)cc1Cl,"SDHD/SDHC/SDHB (Sus scrofa, UniProt A5GZW8+D0VWV4+Q007T0)","enzyme activity, inhibitor, DCIP reduction",pig,"0.4 µM, added: DCIP 80 µM",,reaction velocity,0.00987 µM/s and 0.00863 µM/s and 0.00862 µM/s
CC[C@@H](C)[C@@H](NC(=O)[C@@H](Cc1ccc(O)cc1)NC(=O)[C@H]1CCCN1C(=O)[C@@H](CCCNC(=N)N)NC(=O)[C@H](N)Cc1c[nH]cn1)C(=O)N[C@H](C)C(=O)N[C@H](Cc1c[nH]cn1)C(=O)N[C@H](CCCNC(=N)N)C(=O)N[C@H](CCCCNC(=O)c1cccc(S(=O)(=O)F)c1)C(=O)N[C@H](Cc1ccc(O)cc1)C(=O)N[C@H](CO)C(=O)N[C@H](Cc1ccccc1)C(N)=O,"Transferrin receptor protein 1 (Tfrc, Mus musculus, UniProt Q62351)",flow cytometry,RAW264.7,"48 h, pH 6, replicate 1, unit not given",baseline: 0 h,surface TFRC expression,1.18
Nc1ccc2c3c(cccc13)C(=O)NC2=O,"Beta-lactamase TEM (bla, Escherichia coli, UniProt P62593)",inhibitor,,,,Hill coefficient,0.9
Oc1cc(Cl)cc(-c2cccc(Cl)c2)c1,"AHR (Homo sapiens, UniProt P35869)","reporter gene, antagonist",AZ-AHR cells,"24 h, added: TCDD 4.5 nM",,IC25,9 µM
C/C=C1/CN2CC[C@]34C(=C(C(=O)OC)[C@H]1C[C@H]23)Nc1ccc(I)cc14,"ACKR3 (Homo sapiens, UniProt P25106)",agonist,,,,active concentration,≥ 3 µM
CCCN(Cc1nnc(-c2cccs2)o1)C(=O)C1COc2ccccc2O1 (centres unmarked),PFF0160c E182D,"enzyme activity, DCIP colorimetric",,,baseline: E182D mutant over wild type,IC50 ratio,1.9
c1ccc2c3c(ccc2c1)-c1cccc2cccc-3c12,Aryl hydrocarbon receptor,"reporter gene, agonist, luciferase reporter",ZF-4,30000 µM,baseline: vehicle control,fold change,16.4
Clc1cc2c(cc1Cl)Oc1cc(Cl)c(Cl)cc1O2,"Uncharacterized protein (Takifugu rubripes, UniProt Q4JHL3)","reporter gene, agonist, dual-luciferase",COS-7,24 h,baseline: top over bottom,maximal fold induction,2.01 ± 0.52
Cc1ccc2c(c1)C1(C=C2)CCN(C2Cc3ccccc3CC2O)CC1 (racemic),"Vesicular acetylcholine transporter (Rattus norvegicus, UniProt Q62666)",,rat liver (sigma2),,baseline: Ki sigma2 over Ki VAChT,selectivity ratio,86
CN1CCc2[nH]c3ccccc3c2CC1.O=C(O)/C=C/C(=O)O,"CHRNA7 (Homo sapiens, UniProt P36544)","ion current, inhibitor, two-electrode voltage clamp",Xenopus laevis oocytes,"3 µM, human receptor, added: acetylcholine 100 µM",,recovery time constant,8.8 ± 0.1 s
[2H]c1c([2H])c([C@]2([2H])CCCN2C(=O)C(C)(C)Oc2ccc3cn[nH]c3c2)c([2H])c([2H])c1C([2H])([2H])[2H],"RIOK2 (Homo sapiens, UniProt Q9BVS4)",KINOMEscan,,1 µM,baseline: DMSO control,remaining binding,72%
CC(=O)N[C@@H](CSCCC=O)C(=O)O,"N-acyl-aromatic-L-amino acid amidohydrolase (carboxylate-forming) (Acy3, Mus musculus, UniProt Q91XE4)","substrate, fluorescamine",,added: Co2+ 0.1 mM,,Km,710 µM
COc1ccc(Nc2nn3c(-c4ccccc4)ccnc3c2C(=O)Nc2ccc(Cl)cc2)cc1,α-amylase isoenzymes,"native PAGE densitometry, measured: α-amy1 band",,equal to IC50,,band share,100%
CO/N=C1\C[C@]2(C[C@@H]3C[C@@H](C/C=C(\C)C[C@@H](C)/C=C/C=C4\CO[C@@H]5[C@H](O)C(C)=C[C@@H](C(=O)O3)[C@]45O)O2)O[C@H](/C(C)=C/C(C)C)[C@H]1C,"Bile acid receptor (NR1H4, Homo sapiens, UniProt Q96RI1)","coactivator recruitment, antagonist, TR-FRET",,"NG, added: 50 µM CDCA",,efficacy,13.9 ± 0.92%
O=C(c1ccc(Cl)cc1)N1CCCC(C(=O)N(Cc2nnc(-c3ccccc3Cl)o2)C2CC2)C1 (centres unmarked),PFF0160c E182D,"enzyme activity, DCIP colorimetric",,,baseline: E182D mutant over wild type,IC50 ratio,1.4
C[C@]12CC[C@H]3[C@@H](CCC4=CC(=O)CC[C@@]43C)[C@@H]1CC[C@@H]2C(=O)CO,"CYP11B1 (Homo sapiens, UniProt P15538, V320A)",substrate,,"100 µM, 37 °C, phospholipid vesicles",,11β-hydroxylation product formation rate,35.9 ± 1.6 min⁻¹
